Measured values from different studies.
Every numbered part comes from another study and shows a few of its results, in no order. Positions count from the first letter of the parent shown.
UniProt O43567, sequence (whole entry, looked up): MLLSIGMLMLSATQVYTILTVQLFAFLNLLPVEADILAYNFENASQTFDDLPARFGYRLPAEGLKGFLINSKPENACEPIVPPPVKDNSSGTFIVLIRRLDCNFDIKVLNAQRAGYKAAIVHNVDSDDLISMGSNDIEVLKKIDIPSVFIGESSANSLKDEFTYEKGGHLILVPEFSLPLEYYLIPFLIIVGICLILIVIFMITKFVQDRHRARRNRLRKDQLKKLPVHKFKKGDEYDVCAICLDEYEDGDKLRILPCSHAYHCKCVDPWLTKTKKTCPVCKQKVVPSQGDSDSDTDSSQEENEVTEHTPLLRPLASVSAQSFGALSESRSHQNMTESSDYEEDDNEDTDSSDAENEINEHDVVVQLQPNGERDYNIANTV
UniProt Q9UNE7, sequence (whole entry, looked up): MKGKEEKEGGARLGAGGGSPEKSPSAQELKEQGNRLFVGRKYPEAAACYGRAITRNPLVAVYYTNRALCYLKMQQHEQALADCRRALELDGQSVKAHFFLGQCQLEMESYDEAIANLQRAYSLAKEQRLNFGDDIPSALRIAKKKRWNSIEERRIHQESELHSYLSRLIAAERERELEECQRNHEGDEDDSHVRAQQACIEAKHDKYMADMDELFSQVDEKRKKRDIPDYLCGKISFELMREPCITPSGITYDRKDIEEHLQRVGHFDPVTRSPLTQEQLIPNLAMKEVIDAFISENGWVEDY
UniProt Q9BY78, sequence (whole entry, looked up): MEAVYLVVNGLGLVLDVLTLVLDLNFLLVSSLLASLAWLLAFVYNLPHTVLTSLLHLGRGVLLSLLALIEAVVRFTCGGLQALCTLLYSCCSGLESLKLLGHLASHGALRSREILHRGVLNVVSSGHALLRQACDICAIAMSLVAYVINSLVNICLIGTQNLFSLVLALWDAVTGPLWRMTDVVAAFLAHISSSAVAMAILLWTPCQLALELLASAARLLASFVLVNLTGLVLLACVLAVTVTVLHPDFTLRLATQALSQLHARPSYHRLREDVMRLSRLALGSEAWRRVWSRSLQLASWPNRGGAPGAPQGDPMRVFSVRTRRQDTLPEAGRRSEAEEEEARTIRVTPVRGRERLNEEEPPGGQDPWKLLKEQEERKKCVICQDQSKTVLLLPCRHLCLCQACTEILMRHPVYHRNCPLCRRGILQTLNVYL
UniProt Q9FX25, sequence (whole entry, looked up): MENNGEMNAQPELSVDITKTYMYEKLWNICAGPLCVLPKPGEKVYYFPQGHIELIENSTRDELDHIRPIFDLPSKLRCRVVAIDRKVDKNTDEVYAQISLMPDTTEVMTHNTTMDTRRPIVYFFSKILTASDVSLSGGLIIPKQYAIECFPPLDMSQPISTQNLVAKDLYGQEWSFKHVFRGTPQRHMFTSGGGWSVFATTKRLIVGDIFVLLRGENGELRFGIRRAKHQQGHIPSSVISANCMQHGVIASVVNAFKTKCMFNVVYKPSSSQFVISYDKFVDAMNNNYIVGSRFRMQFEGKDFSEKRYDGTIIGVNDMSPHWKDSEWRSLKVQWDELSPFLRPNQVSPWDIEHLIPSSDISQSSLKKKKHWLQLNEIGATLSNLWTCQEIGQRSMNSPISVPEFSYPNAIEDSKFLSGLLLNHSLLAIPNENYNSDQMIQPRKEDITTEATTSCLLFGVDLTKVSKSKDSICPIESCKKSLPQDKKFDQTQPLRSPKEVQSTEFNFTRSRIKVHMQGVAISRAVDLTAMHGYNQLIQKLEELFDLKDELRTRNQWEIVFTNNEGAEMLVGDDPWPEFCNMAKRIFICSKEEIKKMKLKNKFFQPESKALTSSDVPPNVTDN

Study 1
Target: UBE2D4 UBC core domain (UniProt Q9Y2X8)
UniProt Q9Y2X8, sequence (whole entry, looked up): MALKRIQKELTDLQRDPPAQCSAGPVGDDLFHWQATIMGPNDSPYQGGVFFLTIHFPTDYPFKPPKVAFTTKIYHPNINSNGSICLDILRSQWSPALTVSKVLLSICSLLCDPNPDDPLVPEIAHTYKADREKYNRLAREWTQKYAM
Method: yeast two-hybrid
Medium: yeast
Setting: mostly zero background
Baseline: not given
Direction: higher = stronger interaction
Endpoint: lacZ reporter activity
RNF26 RING domain (UniProt Q9BY78): 0
STUB1 RING domain (UniProt Q9UNE7): 0
RNF13 RING domain (UniProt O43567): 12000
RNF167 RING domain (UniProt Q9H6Y7): 16200

Study 2
Target: CCNE2, cyclin fold, Cln2 fusion (human)
Method: yeast growth competition, sequencing
Medium: yeast
Setting: strong parent motif
Baseline: not given
Direction: higher = stronger binding
Endpoint: normalised enrichment score
Starting sequence: viral docking peptide; YKVKRRLVFGADD
F9D: 0.661
R5G: 0.581
F9N: 0.434
F9Y: 1.61
V8E: 5.38
A11C: 5.68
G10C: 5.1
V8G: 1.48
D13A: 4.55
A11I: 5.59
G10V: 4.76
G10M: 4.26
G10A: 5.34
L7M: 0.674
A11Q: 5.46
D12C: 5.35
G10I: 4.37
L7I: 3.18
F9M: 1.39
K2T: 6.33
K2C: 5.58
K2R: 5.74
K4W: 1.02
F9W: 2.83
F9I: 0.813

Study 3
Target: HLA class I histocompatibility antigen, A alpha chain, allele A*25:01 (Homo sapiens, UniProt P04439)
Read-out: peptide-MHC binding
Molecule type: peptide
Concentration: concentration not given
Endpoint: binding
RLLRFTGLF: inactive
AKIALAVYK: inactive
LTMNLVSDI: inactive

Study 4
Target: Hepatocyte nuclear factor 3-alpha (Foxa1, Mus musculus, UniProt P35582, residues 1-468, full length assumed)
Method: EMSA with sequencing
Molecule type: double-stranded DNA, one strand shown
Medium: in vitro
Concentration: 10 and 20 nM
Setting: whole designed probe, mean of two concentrations, ends assumed
Baseline: negative control set to 0
Direction: higher = stronger binding
Endpoint: normalised bound fraction
All sequences stand within: GTGAGCGGTGCCCATTGATGGGGAAC … TTTCACTGGGATCGTGGGGAC
Residues (chain): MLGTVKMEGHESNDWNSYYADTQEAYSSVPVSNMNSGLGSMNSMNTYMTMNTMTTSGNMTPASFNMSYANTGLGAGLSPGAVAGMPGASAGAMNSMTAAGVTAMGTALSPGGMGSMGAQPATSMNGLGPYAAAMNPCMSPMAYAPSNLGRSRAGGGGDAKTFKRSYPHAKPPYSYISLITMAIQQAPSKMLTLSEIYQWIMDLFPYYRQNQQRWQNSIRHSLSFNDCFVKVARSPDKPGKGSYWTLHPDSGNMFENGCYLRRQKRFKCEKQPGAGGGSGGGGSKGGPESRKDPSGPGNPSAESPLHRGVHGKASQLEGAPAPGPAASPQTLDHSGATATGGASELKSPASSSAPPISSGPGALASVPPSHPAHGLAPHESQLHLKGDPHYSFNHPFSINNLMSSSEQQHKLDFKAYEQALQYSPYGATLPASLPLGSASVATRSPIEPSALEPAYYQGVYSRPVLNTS
AAAAAAAAAAAGTGTGGATAATTCTAAAAGGGTCACAGCTCAGGCCCCATGATGTAAGTCTCTCTGGGAAGGGTGGCGTTGGCCATCACGCTGTGTAATCTGGGATCCCGGGGGCCAGCATCGCACTGCTCTCCATCCCCAGCGAAAGGAAGGGAGGCAGACACTGGGCAGCGGCACTCGGAGTCCACCCAGT: -0.0486 ratio
ATCTTCCCCCTCTTCCTTGCCCCACCAGCTCACCTTCCCGGGTTGTTTACTTTGAGCAAAGTAAACAAAGCCGGCATTCGTTAACCCTCTTCACGCGCATACTGCTGTTTGCTCTGGATGAATCATGGTCCTTTGGCGACGCCAGGCTCCGGGAGAGCAAAGCACCGTGTCAGGGCCATGATCCGGGGTGGCC: 0.534 ratio
AATTATAAATATATAATTATAAATTTATATAAAAATATGTAATTATAAATATGTAATTATATCTAATAGGGTATATTATTTTTTCTAAAACAAAGTAATCTTACAAATGAGAGATTAAACAAATTAGCATAACATAAATTTATCTGCTCTAAAGCTGGGAAAAGATGTGAAAGAAATTATTTTTGTCTTTAAA: 0.173 ratio
GAGGACAGAGGGGATAATTTTTCTGCCTACCATAACAATTACCCAAGTAATATACGCAAATGCACCCTGTAGATCACAAAGTATTATACGTATGTAATTTATTTCTATTAGAAAGAACAAGAAAATAATGGTTATGGTTTCACGGTTAATTAGCAGCAGAGCTCATCTCAGCCTCAGTTCTCATAATTACCTG: -0.0445 ratio
ATCTTCCTTTCCCCCCTTGCCCCACCAGCTCACCTTCCCGGGTTATTTGCAGATAGGAAAATAAATAAAGCCGGCATTCGTTAACCCTCTTCTGGCGCAAACTGCTGTTTGCTCTGGATGAATCATGGTCCTTTGGCGACGCCAGGCTCCGGGAGAGCAAAGCACCGTGTCAGGGCCATGATCCGGGGTGGCC: 0.332 ratio
CTTGGCATGTTATATAACAACTTAACTAACGGCCGCCATGCACGAAAGAGCAAACCGTCCTGTTGCCTAGTGACTATTATCCAAGGCAATCAAAGTAAACAGCAAATGCCACAGATATTTTTGAACAGCTGTTTGTTGACCCAGATACAATATTTATATGGCTCGCTAGTTTCTCAGACAGAATTGGACCCTA: 0.373 ratio
AGTGATACTTAATGTATACTGATTAATGGAACATGTTGCAAAATAATTGACATTACTCGGCCAATCTTGTTCGCTAAGTAAAGAAAATAGTGCTTGTTTACATTATCTTTAACAGCACTCTTAAAGATTTTAGCTAGAAGTTTGGGATAAATTTGACACATTATGAAATTGTTAATATGCAATAAAGGTATAT: 0.31 ratio
TCCTTTATCCCAACATGTTTATACAGACAAAACCAGGTTAAAATCGACACAAGGTCAACTTGAAATGGGGAAAGACGTAGGTGACGTCACAAAATAAACATGAAGTCTTGTGTACAAGCATCTGCAGAAGAGTTCAGCCTCACCACTTGGGTAATGCTGTTGGAATGTGGTCTGGGTTCACTGTATTTGAATG: 0.378 ratio

Study 5
Target: RNA binding protein fox-1 homolog 2, RRM domain, GST-SBP tag (RBFOX2, Homo sapiens, UniProt O43251-10, residues 100-194)
Method: RNA Bind-n-Seq
Molecule type: RNA
Medium: in vitro
Concentration: 365 nM
Setting: natural RNA segment, single round, ends assumed
Baseline: no-protein control
Direction: higher = stronger binding
Endpoint: RBNS enrichment (R)
All sequences stand within: GGGAGUUCUACAGUCCGACGAUC … UGGAAUUCUCGGGUGCCAA
Construct (chain): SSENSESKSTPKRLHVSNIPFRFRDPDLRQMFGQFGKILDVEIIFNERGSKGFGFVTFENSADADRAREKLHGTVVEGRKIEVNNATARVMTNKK
CCUGAUCUCCCUUUCCUGUAGACUGCAGGUUGCUCCUGUCCCUUGAGAUCUCAGUUAGGAGACACUGCUGUUUAUUUGACAAAGAAACUCAAGUGUGGGAUGGGGGGAAG: 0.357
CUAUCUGAGAACUCACAGAUUGUCUUUGCCUCUCUAGGCAGAAACAGAGCUACCCACUGCAGCGGCCUGACUGUGCAGCACUCAGCUCUUUGGCUCUCUCUGAAAUGCCC: 0.84
GUAUCAGCAUAUCAUUUAGACAUUGUGAAAAUGAAUUCCUAAACAUUUUCAUAAAACCGGUUAAUUUUGUAGUUUUAGCCAAAAAGUGCCCCCUUUUUACAACUGAAUUC: 0.937
GUGGGCGGGCAGGGCAGGCCAAGACCCUGCCGCCCAGUGGACCCCGGCCUACCCACCCCACUCUACAGCCCCUCCAACCUCAAGGCACUUCGGGGACUCAGACGGGGGAG: 0.39
UUCUGUCCUGAAAGCUUUGCCUCUUUCUUGGCAAAGUUUCUGGUAUGGUCAAGCUUGUAAAUAACCUUUUUUACAUUUUAAUCUUUUCCAUUAAUUAAGAGGUUGAAAAG: 0.263
GGGCCUUCAUGGAUCUCCAAGUCUCUCAGUCUGGUCCAGCAGGUUCUCUGCUCAAAGCUGCCUGUCUCCAGCCCAGACCUUUGCUGGGUGCACCAGAGCAUCUCAGCAGG: 0.264
UAUCAGUUCAAGGUGGGAGUCUUUGCUCUCAUCACCUGCAGUUCCACCUUGUGUUCAGAAAGCAAAAGUGAAGUGAUAGCCAAGCAUGGGCCACUAGAUGGAGUAUCCUG: 1.23
GUAUAAUUGAGUUUUCAGUGGGGCAGUCAUUAUCCAGGUAAUCCAAGAUAUUUUAAAAUCUGUCACGUAGAACUUGGAUGUACCUGCCCCCAAUCCAUGAACCAAGACCA: 0.29

Single results of other studies
Partner: ARF17 (Arabidopsis thaliana, UniProt Q84WU6)
Method: two-hybrid
Setting: weak activation fusion
Baseline: out of 4 tests
Direction: higher = firmer interaction
B1: IAA31 (Arabidopsis thaliana, UniProt Q8H174); chain MEVSNSCSSFSSSSVDSTKPSPSESSVNLSLSLTFPSTSPQREARQDWPPIKSRLRDTLKGRRLLRRGDDTSLFVKVYMEGVPIGRKLDLCVFSGYESLLENLSHMFDTSIICGNRDRKHHVLTYEDKDGDWMMVGDIPWDMFLETVRRLKITRPERY
B2: ARF7 1030-1164 (Arabidopsis thaliana, UniProt P93022); chain PAQTQRMRTYTKVQKRGSVGRSIDVNRYRGYDELRHDLARMFGIEGQLEDPQTSDWKLVYVDHENDILLVGDDPWEEFVNCVQSIKILSSAEVQQMSLDGNFAGVPVTNQACSGGDSGNAWRGHYDDNSATSFNR
B3: ARF16 570-670 (Arabidopsis thaliana, UniProt Q93YR9); chain SPCSKKVHDASGLETGHCKVFMESDDVGRTLDLSVLGSYEELSRKLSDMFGIKKSEMLSSVLYRDASGAIKYAGNEPFSEFLKTARRLTILTEQGSESVVV
Residues used in one study (chain): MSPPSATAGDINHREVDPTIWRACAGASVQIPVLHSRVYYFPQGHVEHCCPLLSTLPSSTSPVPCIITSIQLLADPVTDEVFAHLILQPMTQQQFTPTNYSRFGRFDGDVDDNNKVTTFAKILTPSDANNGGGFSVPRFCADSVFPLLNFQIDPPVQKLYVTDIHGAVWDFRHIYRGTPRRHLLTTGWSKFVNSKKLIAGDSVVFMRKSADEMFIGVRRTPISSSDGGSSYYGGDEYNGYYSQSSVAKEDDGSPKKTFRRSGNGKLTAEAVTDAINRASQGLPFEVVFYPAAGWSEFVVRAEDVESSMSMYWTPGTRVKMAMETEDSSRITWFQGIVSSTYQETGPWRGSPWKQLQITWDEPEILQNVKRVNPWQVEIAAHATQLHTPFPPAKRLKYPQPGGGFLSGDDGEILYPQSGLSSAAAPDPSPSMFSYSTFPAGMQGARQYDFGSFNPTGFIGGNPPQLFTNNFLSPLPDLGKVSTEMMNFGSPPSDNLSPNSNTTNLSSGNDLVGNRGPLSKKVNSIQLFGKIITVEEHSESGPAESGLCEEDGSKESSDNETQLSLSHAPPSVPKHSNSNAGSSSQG
B1 (IAA31)  positive tests: 1
B2 (ARF7 1030-1164)  positive tests: 0
ARF13 (Arabidopsis thaliana, UniProt Q9FX25)  positive tests: 0
B3 (ARF16 570-670)  positive tests: 0

Excerpt of the above (study 5):
GUGGGCGGGCAGGGCAGGCCAAGACCCUGCCGCCCAGUGGACCCCGGCCUACCCACCCCACUCUACAGCCCCUCCAACCUCAAGGCACUUCGGGGACUCAGACGGGGGAG: 0.39
UUCUGUCCUGAAAGCUUUGCCUCUUUCUUGGCAAAGUUUCUGGUAUGGUCAAGCUUGUAAAUAACCUUUUUUACAUUUUAAUCUUUUCCAUUAAUUAAGAGGUUGAAAAG: 0.263
GGGCCUUCAUGGAUCUCCAAGUCUCUCAGUCUGGUCCAGCAGGUUCUCUGCUCAAAGCUGCCUGUCUCCAGCCCAGACCUUUGCUGGGUGCACCAGAGCAUCUCAGCAGG: 0.264
UAUCAGUUCAAGGUGGGAGUCUUUGCUCUCAUCACCUGCAGUUCCACCUUGUGUUCAGAAAGCAAAAGUGAAGUGAUAGCCAAGCAUGGGCCACUAGAUGGAGUAUCCUG: 1.23
GUAUAAUUGAGUUUUCAGUGGGGCAGUCAUUAUCCAGGUAAUCCAAGAUAUUUUAAAAUCUGUCACGUAGAACUUGGAUGUACCUGCCCCCAAUCCAUGAACCAAGACCA: 0.29
